Measurements from different studies.
Protocols differ between the studies behind these lines. ≈ marks a conversion by molar mass, not a printed value.

With `Cc1ccc2nc(C(F)(F)F)c(C(=O)NCc3cccc(Cl)c3)n2c1` the kinetic solubility was 9 µM (≈ 3.31 µg/mL) (CLND; phosphate-buffered saline; 1 (unit not given), pH 7.4).
With `CC(C)C[C@@H]1NC(=O)[C@H](C(C)C)N(C)C(=O)[C@@H](CC(C)C)NC(=O)[C@@H](Cc2ccccc2)NC(=O)[C@@H]([C@H](OCc2ccccc2)c2ccccc2)NC1=O` the kinetic solubility was 7 µM (≈ 5.18 µg/mL).
With `CC(C)[C@@H](CN1CC[C@@](C)(c2cccc(C(N)=O)c2)[C@@H](C)C1)NC(=O)[C@H]1Cc2ccc(O)cc2CN1` the kinetic solubility was 36 µM (≈ 17.7 µg/mL) (10 mM phosphate buffer; 90 min, pH 3, room temperature, 1% DMSO).
For `CCc1nn(C)c2nc(-c3ccc(C(=O)O)cc3)nc(NCc3ccccc3)c12`, the kinetic solubility was 190 µM (≈ 73.6 µg/mL) (PBS; 2 h, pH 7.4).
The kinetic solubility of `CCc1ccc([C@@H]2C[C@H](C(F)(F)F)n3ncc(C(=O)NCc4ccc(OC)cc4)c3N2)cc1` is reported as 0 µM (CLND; phosphate buffered saline; 1 (unit not given), pH 7.4).
The kinetic solubility of `Cc1ncsc1-c1ccc(CNC(=O)[C@@H]2C[C@@H](O)CN2C(=O)[C@@H](NC(=O)Cc2ccc(-c3ccc(CNC(=O)c4cc5c(cc4CS(C)(=O)=O)-c4cn(C)c(=O)c6[nH]cc(c46)CN5c4ncc(F)cc4F)cc3)cc2)C(C)(C)C)cc1` is reported as under 1.56 µM (Sf9 cell culture medium).
`CCn1ccc(-c2cc(-c3cnn(C)c3)cc([C@@H](C)NC(=O)c3cc(OCCN(C)C)ccc3C)c2)n1` gave a kinetic solubility of 180 µM (≈ 90.1 µg/mL) (phosphate buffer; 24 (unit not given), pH 7.4).
`Cc1ccc2nc(C)c(C(=O)NCc3cccs3)n2c1` has a kinetic solubility of 339 µM (≈ 96.7 µg/mL) (CLND; phosphate-buffered saline; 1 (unit not given), pH 7.4).
`CC(C)C[C@H](NC(=O)[C@H](C)NC(=O)[C@H](Cc1cn(CCc2ccc(O)c(C=O)c2)nn1)NC(=O)[C@H](Cc1ccccc1)NC(=O)CCNC(=S)Nc1ccc2c(c1)C(=O)OC21c2ccc(O)cc2Oc2cc(O)ccc21)C(=O)N[C@@H](CC(=O)O)C(=O)N[C@@H](Cc1c[nH]c2ccccc12)C(=O)N[C@@H](CO)C(=O)N[C@@H](Cc1c[nH]c2ccccc12)C(=O)N[C@@H](CC(C)C)C(=O)N[C@@H](CCC(N)=O)C(=O)N[C@H](C(=O)N[C@@H](CCC(=O)O)C(N)=O)[C@@H](C)O` gave a kinetic solubility of 0.125 µM (≈ 0.268 µg/mL) (dynamic light scattering; PBS with 1% DMSO).

Some of these lines once more:
The kinetic solubility of `CCc1ccc([C@@H]2C[C@H](C(F)(F)F)n3ncc(C(=O)NCc4ccc(OC)cc4)c3N2)cc1` is reported as 0 µM (CLND; phosphate buffered saline; 1 (unit not given), pH 7.4).
